Measured values gathered from unrelated publications.
Compare with care: the assays were run in different laboratories.

`COc1ccc(-n2nc(C(C)=O)s/c2=N\N=C(/C)c2ccc(NC(C)=O)cc2)cc1` has a viability of 6.09% (HepG2; 10 µM).
Under G-protein activity, `CN1CC[C@]23c4c5ccc(O)c4O[C@H]2[C@@H](O)C=C[C@H]3[C@H]1C5` is recorded as “no effect” (CHO-WT cells; cell membranes without MOR; concentration not given, compound alone, basal).
`CNc1ncc2c(/C=C/C(=O)N3CCC4(CC3)OCCO4)nn(Cc3cccc(C)c3)c2n1` gave an EC50 of 2520 nM (SKGT4; 120 h).
`COc1ccc(-c2c[nH]c(C(=O)NC3C4CC5CC(C4)CC3C5)c2)cn1` (centres unmarked) has an IC50 of 34.2 µg/mL (Vero; 48 h).
`NC(=Nc1ccccc1)NC(=O)c1nc(Cl)c(N)nc1N` has an IC50 of 7940 nM (Plasmodium falciparum; D10).
`CN1C(=O)C(C2C3=C(CC(C)(C)CC3=O)Oc3c(O)cccc32)C(=O)N(C)C1=O` (centres unmarked): mRNA level “decreased” (mouse preadipocytes; qPCR, measured: Pref-1; IC20, 14 days, adipogenic induction; relative to: untreated cells).
With `CNc1ncc2c(/C=C/C(=O)N3CCC4(CC3)OCCO4)nn(Cc3cccc(C(F)(F)F)c3)c2n1` the EC50 was 150 nM (EPC-2 pre-malignant; cell viability, PrestoBlue; 120 h).
With `O=C(NC1C2CC3CC(C2)CC1C3)c1cc(-c2ccccc2F)c[nH]1` (centres unmarked) the IC50 was 21.2 µg/mL (Vero; 48 h).
With `Cc1c(C(=O)c2cccc3ccccc23)c2cccc3c2n1[C@H](CN1CCOCC1)CO3` the EC50 was 1700 nM (TC-71; cytotoxicity, LDH release).
`CCCC1O[C@@H]2C[C@H]3[C@@H]4CCC5=CC(=O)C=C[C@]5(C)[C@H]4[C@@H](O)C[C@]3(C)[C@]2(C(=O)CO)O1` (some centres unmarked) gave an IC50 of 10000 nM (Plasmodium falciparum; D10).
For `O=C(NC1C2CC3CC(C2)CC1C3)c1cc(-c2ccc(F)cc2F)c[nH]1` (centres unmarked), the IC50 was 14.4 µg/mL (Vero; 48 h).
For `CCCCCCC#Cc1cncc(-c2nnc(Sc3ccc([N+](=O)[O-])cc3[N+](=O)[O-])n2C)c1`, the selectivity index was 27 (Vero; relative to: Vero CC50 over Mtb IC50).
`O=C(NC12CC3CC(CC(C3)C1)C2)c1cc(-c2ccc(F)cc2)c[nH]1` has an IC50 of 25.4 µg/mL (Vero; 48 h).
`O=C1NC(=O)C(C2C3=C(CCCC3=O)Oc3ccc([N+](=O)[O-])cc32)C(=O)N1` (centres unmarked) — result for mRNA level: “decreased” (mouse preadipocytes; qPCR, measured: HSL; IC20, 14 days, adipogenic induction; relative to: untreated cells).

Excerpt of the above:
With `Cc1c(C(=O)c2cccc3ccccc23)c2cccc3c2n1[C@H](CN1CCOCC1)CO3` the EC50 was 1700 nM (TC-71; cytotoxicity, LDH release).
`NC(=Nc1ccccc1)NC(=O)c1nc(Cl)c(N)nc1N` has an IC50 of 7940 nM (Plasmodium falciparum; D10).
